Measurements pooled from the literature.
Every numbered part comes from another study and shows a few of its results, in no order. Changes are numbered by the printed parent chain.

Sample 1
Target: RNA binding protein fox-1 homolog 2, RRM domain, GST-SBP tag (RBFOX2, Homo sapiens, UniProt O43251-10, residues 100-194)
Technique: RNA Bind-n-Seq
Molecule type: RNA
Matrix: in vitro
Tested at: 365 nM
Notes: natural RNA segment, single round, ends assumed
Reference: no-protein control
Direction: higher = stronger binding
Constant ends, left off below: GGGAGUUCUACAGUCCGACGAUC … UGGAAUUCUCGGGUGCCAA
Construct (chain): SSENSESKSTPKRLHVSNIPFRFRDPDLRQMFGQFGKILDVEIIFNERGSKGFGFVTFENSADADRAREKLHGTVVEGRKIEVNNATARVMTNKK
Oligonucleotide | RBNS enrichment (R)
AGAAGCCUCAUUCCAGAACCCAUCUGGCCAGAGAAGCAGCAGCAUCCUGGGGGAUGGCCGUGCAUGGGGUGUACACUCGCUAUAGGCAUAGGCCCGGCAUGGCUGUCGCU | 1.41
UAAUAGAUCUGUACCUAUCUAUCUCUGUACGCAUAUAUACAGUUCACUGUAGAAAACCACAGCUAGCGAGCAUCGCAGACUCAUGCAAACCAAGUGAUCUUGUUUACAGU | 0.333
CUUCUGACGUCAUGUAGACAGAGGAGCAUUGGAGUCAUAAAGUCUGUAGUCUUAACUCUAACCCUCUGGUGCUGCUCUCUGAGCAGCAGUAUUUACAAUAACCGAGCUAU | 0.399
CCCCAACUUCCUCAAAGCCCAAAGCCAAGGGAAGGAUAAAUCAAGGCUCAAGGCUUCCCCAGCAAAGAUUAGGGAAAGAGACUUGACCCCAGGACUGUACUACGACUCUU | 0.226
CUGUCCAGCCUCUGAGUACCAUGUUAUUUCAGCUCCAUGUUGCCCUGCAACAGGAAGCAGGAAGGUUGCUCGCCCUGUUUCCAGAGAUUGCAAUAAAGCAGUGUGAGGGG | 0.243
GAACAGCUCGGGCCACUCUUCUGAAGGCCAACGUGGAGGAAAGGGAGCAGCCAGCCAUUUGGGAGAAGAUCUCAAGGAUCCAGACUCUCAUUCCUUUCCUCUGGCCCAGU | 0.269
UCAUCGUAGUGCGGGCCGUAUUAGAGGCAGUGGGGUACGUUAGACUCAGAUGGAAAAGUAUUCUAGGUGCCAGUGUUAGGAUGUCAGUUUUACAAAAUAAUGAAGCAAUU | 0.634
GCCGCCUACCCCGCCCGCCACGCCGCCGUCGAUGCCAGCGCUGUCCCCACGGGUACCAGGAAGUGCAGAGCCGCACAGGAGCUGCCCCGGAGCUGAGGGGACGGUCUUCG | 0.23
UGUGCGCUCGAGUGUGUAAGUGUGGGUGUGUGGGUGUGUGUGUGUGGUCUGCUCAUCUCUUUAGGGAACUUUGAGGUGGGCGGUGGCAUAUGGAGGGGUGUCAGGUUCUA | 1.34
UCAUACUCCAAUCAUAACCUUGUAUAUUAUGCAGUCAUUUUGGUUUUCGCGGACGCGCCUACCUAAGUACCAUUUACAGAAAGUGACUCUGGCUGUCAUUAUUUUGUUUA | 0.408
AGAUUUAUUCCCUUGUGUCAGGCCAAAGAAGUUCUUACAAAGUACAGUGGGUAGUGUCUAAAGCGACACUUUACUCACAGCCUGGCUUGAGUCAACAGGAACACCAUAGC | 0.197

Sample 2
Target: CCND2, cyclin fold, Cln2 fusion (human)
Technique: yeast growth competition, sequencing
Matrix: yeast
Notes: strong parent motif
Reference: not given
Direction: higher = stronger binding
Parent: PKN2 docking peptide (human); VSAVRKLDFSDTM
Variant | normalised enrichment score
VSAVRILDFSDTM [K6I] | 1.69
VSAVTKLDFSDTM [R5T] | 0.432
VSAVRHLDFSDTM [K6H] | 1.79
VSLVRKLDFSDTM [A3L] | 0.364
VSAVRKLDFSDAM [T12A] | 3.66
VSAVKKLDFSDTM [R5K] | 1.18

Sample 3
Target: Phosphate system positive regulatory protein PHO4, full length, GST-tagged (PHO4, Saccharomyces cerevisiae, UniProt P07270, residues 1-312)
Technique: competition protein-binding microarray
Molecule type: double-stranded DNA, one strand shown
Matrix: in vitro
Tested at: 2 µM
Notes: whole 60-bp probe, lowest competitor level
Together with: Cbf1 competitor, 0.05 µM
Direction: higher = stronger binding
Constant ends, left off below: … GTCTTGATTCGCTTGACGCTGCTG
Target sequence (chain): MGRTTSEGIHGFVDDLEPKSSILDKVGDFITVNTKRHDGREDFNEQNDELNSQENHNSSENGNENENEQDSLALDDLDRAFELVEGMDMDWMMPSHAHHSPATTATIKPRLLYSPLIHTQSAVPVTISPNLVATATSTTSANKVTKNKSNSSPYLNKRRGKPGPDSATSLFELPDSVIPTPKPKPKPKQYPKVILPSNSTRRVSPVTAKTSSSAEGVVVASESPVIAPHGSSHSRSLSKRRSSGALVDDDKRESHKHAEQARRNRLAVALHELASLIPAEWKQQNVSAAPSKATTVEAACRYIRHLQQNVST
Oligonucleotide | fluorescence intensity [a.u.]
AAATTACTAAGTTGTCGCGTGGGTGACGCCGTATGA | 9710
CTTTCCCGATCTTGGTGCGTGGGTGTAGCACATTTG | 9760
TCAACCTGGGTTCGTCACGCAAGACTTGAAGATGAT | 4870
TGCGCAACAACTTGGGAAGTGGGTGTATGTCTAGAA | 4400
GATTTTTTCAAATGGCACATGCTTCGGAAAAATGAT | 11900
TGCGCAACAACTTGTCACTGGACTTTATGTCTAGAA | 2950
CATACCCAACCTTGTCACCCTACTTAAGATATTTGT | 4220
GAGCGCCATTGTACCCACGTGTAACTGGGGCGAAGG | 17100
AAATTACTAAGTTCGCACGTGTTTTACCCCGTATGA | 19800
CCGGCGCGGTCGTACATCGTGACGGTCCTGCGCTGG | 6640
TGCGCAACAACTTGTTGGGTGGGTGTATGTCTAGAA | 4720

Mixed results
Molecule | target | assay | test system | setting | how to read | measurement | result
PhoQ, residues 284 288 289 292 302 303 QWQEDG | PhoP, residues 12 14 15 18 19 LHHVQ (Escherichia coli, UniProt P23836) | Sort-seq, measured: YFP reporter | E. coli | PhoQ-PhoP variant library, together with: 10 µM Mg2+ | reference: high Mg2+ state, higher = stronger signaling | fold induction | 14.4
